Published values collected from several papers.
A part holds a random share of what one study measured. Positions count from the first letter of the parent shown.
Chain of UniProt Q9H2K8 (whole entry, looked up): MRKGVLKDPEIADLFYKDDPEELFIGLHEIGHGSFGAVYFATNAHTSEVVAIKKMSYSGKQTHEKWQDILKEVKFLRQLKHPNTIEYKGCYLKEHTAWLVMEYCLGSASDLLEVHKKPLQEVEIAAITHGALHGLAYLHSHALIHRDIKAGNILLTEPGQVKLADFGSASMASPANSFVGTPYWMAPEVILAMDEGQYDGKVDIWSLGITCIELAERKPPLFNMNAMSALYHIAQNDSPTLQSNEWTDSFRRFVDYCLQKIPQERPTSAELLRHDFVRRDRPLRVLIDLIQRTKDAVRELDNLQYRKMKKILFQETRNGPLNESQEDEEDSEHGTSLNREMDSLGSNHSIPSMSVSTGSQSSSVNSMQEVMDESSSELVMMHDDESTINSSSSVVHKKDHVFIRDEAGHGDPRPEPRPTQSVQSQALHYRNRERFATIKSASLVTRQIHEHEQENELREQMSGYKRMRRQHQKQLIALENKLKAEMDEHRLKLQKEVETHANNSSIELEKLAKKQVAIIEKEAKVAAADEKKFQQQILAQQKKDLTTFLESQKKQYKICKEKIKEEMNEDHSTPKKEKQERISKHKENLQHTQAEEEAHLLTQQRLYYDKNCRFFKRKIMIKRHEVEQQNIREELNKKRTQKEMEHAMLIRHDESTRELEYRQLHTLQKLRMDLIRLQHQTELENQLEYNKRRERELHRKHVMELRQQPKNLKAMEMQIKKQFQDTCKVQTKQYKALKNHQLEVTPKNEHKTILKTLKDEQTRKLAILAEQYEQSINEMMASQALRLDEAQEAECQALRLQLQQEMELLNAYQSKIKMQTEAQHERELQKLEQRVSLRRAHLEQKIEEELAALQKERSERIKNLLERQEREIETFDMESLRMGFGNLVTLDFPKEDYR
Chain of UniProt P45985 (whole entry, looked up): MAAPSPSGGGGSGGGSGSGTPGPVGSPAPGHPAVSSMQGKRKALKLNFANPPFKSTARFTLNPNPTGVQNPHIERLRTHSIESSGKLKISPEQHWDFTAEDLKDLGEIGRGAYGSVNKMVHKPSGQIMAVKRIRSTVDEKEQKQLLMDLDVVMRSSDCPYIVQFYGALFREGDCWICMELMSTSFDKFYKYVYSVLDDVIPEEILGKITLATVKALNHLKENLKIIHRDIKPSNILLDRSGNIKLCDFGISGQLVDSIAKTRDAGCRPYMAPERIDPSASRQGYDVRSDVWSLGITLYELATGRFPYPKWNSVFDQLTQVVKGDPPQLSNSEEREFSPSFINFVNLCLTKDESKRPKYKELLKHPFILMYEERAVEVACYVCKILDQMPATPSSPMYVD
Chain of UniProt P33981 (whole entry, looked up): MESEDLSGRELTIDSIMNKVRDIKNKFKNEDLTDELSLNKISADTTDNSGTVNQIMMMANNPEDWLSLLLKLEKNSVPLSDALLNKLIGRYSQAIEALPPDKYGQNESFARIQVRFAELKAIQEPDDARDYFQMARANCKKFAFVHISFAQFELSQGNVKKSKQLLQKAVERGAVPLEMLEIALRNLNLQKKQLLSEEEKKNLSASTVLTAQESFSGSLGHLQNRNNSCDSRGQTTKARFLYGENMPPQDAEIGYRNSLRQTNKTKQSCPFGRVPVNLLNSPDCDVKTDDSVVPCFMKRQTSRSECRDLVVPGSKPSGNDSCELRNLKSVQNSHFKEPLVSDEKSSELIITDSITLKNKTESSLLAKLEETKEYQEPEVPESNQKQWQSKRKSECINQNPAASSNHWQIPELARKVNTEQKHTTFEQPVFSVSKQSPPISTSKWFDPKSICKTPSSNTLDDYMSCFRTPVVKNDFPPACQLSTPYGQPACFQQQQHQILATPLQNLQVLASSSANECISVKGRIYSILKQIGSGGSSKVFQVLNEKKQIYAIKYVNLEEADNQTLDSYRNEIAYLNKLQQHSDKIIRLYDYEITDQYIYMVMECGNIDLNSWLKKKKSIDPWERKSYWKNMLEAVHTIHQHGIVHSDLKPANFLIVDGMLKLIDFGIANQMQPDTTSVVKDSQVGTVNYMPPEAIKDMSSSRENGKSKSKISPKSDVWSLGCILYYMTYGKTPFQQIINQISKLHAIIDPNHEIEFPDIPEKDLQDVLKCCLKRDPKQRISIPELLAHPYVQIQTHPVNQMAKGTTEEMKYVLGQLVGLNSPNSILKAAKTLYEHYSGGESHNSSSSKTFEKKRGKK
Chain of UniProt Q13233 (whole entry, looked up): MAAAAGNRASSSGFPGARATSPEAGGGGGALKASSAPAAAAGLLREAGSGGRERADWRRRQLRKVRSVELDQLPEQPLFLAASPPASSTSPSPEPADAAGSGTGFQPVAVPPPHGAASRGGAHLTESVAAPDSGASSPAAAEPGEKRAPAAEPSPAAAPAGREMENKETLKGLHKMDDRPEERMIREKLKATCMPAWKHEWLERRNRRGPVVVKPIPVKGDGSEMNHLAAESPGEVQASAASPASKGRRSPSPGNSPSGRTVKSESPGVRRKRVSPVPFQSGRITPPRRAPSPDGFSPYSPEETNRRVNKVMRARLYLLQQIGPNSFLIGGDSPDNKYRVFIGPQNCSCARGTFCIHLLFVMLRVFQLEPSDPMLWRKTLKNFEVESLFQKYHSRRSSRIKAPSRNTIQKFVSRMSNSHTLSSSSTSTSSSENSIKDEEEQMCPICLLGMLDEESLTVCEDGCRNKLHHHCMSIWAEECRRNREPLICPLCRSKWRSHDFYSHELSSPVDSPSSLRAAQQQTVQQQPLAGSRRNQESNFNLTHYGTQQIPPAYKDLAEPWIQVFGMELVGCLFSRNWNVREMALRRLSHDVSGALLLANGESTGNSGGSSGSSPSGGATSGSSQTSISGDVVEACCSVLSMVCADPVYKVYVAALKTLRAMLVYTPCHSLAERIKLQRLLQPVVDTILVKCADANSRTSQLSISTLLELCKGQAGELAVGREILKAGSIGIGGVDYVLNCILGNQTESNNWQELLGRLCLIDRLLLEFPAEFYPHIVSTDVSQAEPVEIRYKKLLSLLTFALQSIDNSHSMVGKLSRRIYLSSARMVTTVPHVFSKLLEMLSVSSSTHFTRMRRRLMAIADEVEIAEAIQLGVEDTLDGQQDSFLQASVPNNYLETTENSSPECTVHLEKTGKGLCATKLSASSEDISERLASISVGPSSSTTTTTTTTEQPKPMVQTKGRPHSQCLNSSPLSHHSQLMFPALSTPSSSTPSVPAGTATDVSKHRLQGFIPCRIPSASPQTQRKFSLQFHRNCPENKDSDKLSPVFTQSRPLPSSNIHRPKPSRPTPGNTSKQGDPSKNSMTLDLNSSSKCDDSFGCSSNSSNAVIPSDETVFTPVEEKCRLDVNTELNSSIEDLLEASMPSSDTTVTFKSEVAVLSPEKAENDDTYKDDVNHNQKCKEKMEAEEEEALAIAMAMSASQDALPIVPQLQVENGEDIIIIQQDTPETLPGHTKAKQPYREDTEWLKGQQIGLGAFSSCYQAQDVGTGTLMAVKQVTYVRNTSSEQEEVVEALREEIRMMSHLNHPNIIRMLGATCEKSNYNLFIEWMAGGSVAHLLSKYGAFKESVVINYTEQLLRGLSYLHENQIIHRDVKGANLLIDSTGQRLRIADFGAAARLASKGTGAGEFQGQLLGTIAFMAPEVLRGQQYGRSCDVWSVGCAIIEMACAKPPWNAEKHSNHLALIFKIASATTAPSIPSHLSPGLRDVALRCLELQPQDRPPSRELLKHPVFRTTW
Chain of UniProt P29597 (whole entry, looked up): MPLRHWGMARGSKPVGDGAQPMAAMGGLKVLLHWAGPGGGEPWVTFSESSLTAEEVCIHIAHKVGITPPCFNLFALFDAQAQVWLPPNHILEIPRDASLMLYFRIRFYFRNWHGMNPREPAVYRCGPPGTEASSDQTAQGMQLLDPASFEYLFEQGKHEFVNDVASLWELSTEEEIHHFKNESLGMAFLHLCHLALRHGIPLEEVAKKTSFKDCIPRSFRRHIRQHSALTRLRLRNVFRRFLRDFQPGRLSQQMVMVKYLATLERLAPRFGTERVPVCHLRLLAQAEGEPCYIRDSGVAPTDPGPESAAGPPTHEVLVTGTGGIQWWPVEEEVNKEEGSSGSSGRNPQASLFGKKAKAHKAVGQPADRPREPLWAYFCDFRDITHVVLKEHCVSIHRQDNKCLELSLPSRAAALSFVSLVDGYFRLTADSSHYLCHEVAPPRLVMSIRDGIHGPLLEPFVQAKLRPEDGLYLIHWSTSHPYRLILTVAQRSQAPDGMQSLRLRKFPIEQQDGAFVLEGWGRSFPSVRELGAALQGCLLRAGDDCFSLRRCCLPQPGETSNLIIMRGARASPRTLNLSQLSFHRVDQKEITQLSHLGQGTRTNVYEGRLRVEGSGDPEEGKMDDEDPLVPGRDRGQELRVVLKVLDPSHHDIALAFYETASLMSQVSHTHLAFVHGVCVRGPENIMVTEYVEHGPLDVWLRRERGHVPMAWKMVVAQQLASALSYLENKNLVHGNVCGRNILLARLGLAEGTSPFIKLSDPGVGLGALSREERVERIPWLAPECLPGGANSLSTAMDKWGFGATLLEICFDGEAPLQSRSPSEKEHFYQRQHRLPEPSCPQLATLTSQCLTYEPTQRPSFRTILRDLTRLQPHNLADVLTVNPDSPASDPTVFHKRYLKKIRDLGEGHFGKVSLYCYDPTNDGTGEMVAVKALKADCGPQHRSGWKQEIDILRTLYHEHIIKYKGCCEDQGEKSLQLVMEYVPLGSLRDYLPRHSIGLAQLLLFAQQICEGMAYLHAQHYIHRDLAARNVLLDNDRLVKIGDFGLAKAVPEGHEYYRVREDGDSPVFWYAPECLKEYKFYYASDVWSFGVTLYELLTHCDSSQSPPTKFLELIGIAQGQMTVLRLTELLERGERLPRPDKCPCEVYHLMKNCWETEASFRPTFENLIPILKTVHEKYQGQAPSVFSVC

Series 1 — target: CRIPT, C-terminal peptide; method: DHFR complementation, deep sequencing; matrix: yeast; baseline: wild type; reading: higher = weaker binding
Notes: single substitutions, model-inferred values
Starting sequence: ERBIN, PDZ domain 1 (human); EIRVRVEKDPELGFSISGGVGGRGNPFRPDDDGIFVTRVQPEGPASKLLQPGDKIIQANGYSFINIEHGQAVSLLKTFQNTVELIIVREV; partner TKNYKQTSV
| Variant | binding free energy change |
| --- | --- |
| V4F | 0.0198 kcal/mol |
| I86W | 0.768 kcal/mol |
| R38W | 0.431 kcal/mol |
| I2T | 0.164 kcal/mol |
| I56G | -0.0541 kcal/mol |
| I64V | 0.0865 kcal/mol |
| I34P | 0.6 kcal/mol |
| L75T | 1.37 kcal/mol |

Series 2 — effect on: cell-free assay; method: competition with immobilised ligand; tested at: 1 µM
SMILES: CC(=O)C1=C(C)N(c2cccc(C(F)(F)F)c2)C(=O)N[C@@H]1c1ccc(C#N)nc1
| target | remaining binding |
| --- | --- |
| Serine/threonine-protein kinase 10 (STK10, Homo sapiens, UniProt O94804) | 84.5% |
| Dual specificity mitogen-activated protein kinase kinase 4 (MAP2K4, Homo sapiens, UniProt P45985) | 98.1% |
| Bone morphogenetic protein receptor type-2 (BMPR2, Homo sapiens, UniProt Q13873) | 100% |
| Receptor-type tyrosine-protein kinase FLT3 (FLT3, Homo sapiens, UniProt P36888, D835H) | 100% |
| Hepatocyte growth factor receptor (MET, Homo sapiens, UniProt P08581, Y1235D) | 100% |
| Mitogen-activated protein kinase kinase kinase 4 (MAP3K4, Homo sapiens, UniProt Q9Y6R4) | 100% |
| Serine/threonine-protein kinase TAO3 (TAOK3, Homo sapiens, UniProt Q9H2K8) | 73% |
| Dual specificity protein kinase TTK (TTK, Homo sapiens, UniProt P33981) | 97.9% |
| BMP-2-inducible protein kinase (BMP2K, Homo sapiens, UniProt Q9NSY1) | 100% |
| Mitogen-activated protein kinase kinase kinase 1 (MAP3K1, Homo sapiens, UniProt Q13233) | 100% |
| Serine/threonine-protein kinase Nek5 (NEK5, Homo sapiens, UniProt Q6P3R8) | 80.6% |
| Non-receptor tyrosine-protein kinase TYK2, JH1 (TYK2, Homo sapiens, UniProt P29597) | 91.3% |

Series 3 — cell line: Huh-7; tested at: 10 µM; time: 24 h
| SMILES | viability [%] |
| --- | --- |
| C[N+](C)(C)CCO | 101 |
| CC(=O)OCC(=O)[C@@]1(O)[C@@H](C)C[C@H]2[C@@H]3CCC4=CC(=O)C=C[C@]4(C)[C@@]3(F)[C@@H](O)C[C@@]21C | 102 |
| C[N+]1(C)CCCC(OC(=O)C(O)(c2ccccc2)c2ccccc2)C1 (centres unmarked) | 98 |
| CC(C)(C)NCC(O)c1cc(O)cc(O)c1 (centres unmarked) | 101 |

Mixed results — cell line: A-375; tested at: 100 µM; time: 36 h
| Compound | viability [%] |
| --- | --- |
| OC[C@H]1O[C@@H](c2ccc(Cl)c(Cc3ccc(O[C@H]4CCOC4)cc3)c2)[C@H](O)[C@@H](O)[C@@H]1O | 103 |
| CCCc1cc(=O)[nH]c(=S)[nH]1 | 108 |
